Measured values of several laboratories.
Compare with care: the assays were run in different laboratories. Values joined by “and” are separate records of one study, mostly repeats; a detail may differ. ± gives the spread as reported.

SMILES = CCC(=C(c1ccc(Cl)cc1)c1ccc(OCCN(C)C)cc1)c1ccc(OC)cc1; cell line = NCI-60 tumour cell lines; conditions = 10 µM, mean over cell lines; quantity = growth inhibition; value = 8.37%
SMILES = Cc1ccc(C(=O)OCCCn2ccc(=O)c(OCc3ccccc3)c2C)cc1; cell line = PC-12; test = cell growth, MTT; how to read = reference: docetaxel over compound IC50; quantity = potency ratio; value = ~2 fold
SMILES = C/C(=N/O)c1ccc(NS(=O)(=O)c2cccc(/C=C/C(=O)NO)c2)cc1; cell line = MOPC-315; test = cell growth; conditions = 24 h; how to read = reference: belinostat; quantity = relative potency; value = 0.148
SMILES = COc1c(O)c(-c2c(O)c(OC)c(OC)c3c2ccc2cc(O)ccc23)c2c(c1OC)-c1ccc(O)cc1CC2; cell line = U-87 MG; test = cell growth or viability, CCK-8; conditions = 100 µM, 24 h; quantity = viability; value = 11.9%
SMILES = COc1cc(CNC(=O)C[C@H](C)CCC=C(C)C)ccc1OCc1cn(-c2ccc(Cl)c(Cl)c2)nn1; cell line = OVCAR-3 ovarian cancer cells; test = SRB; conditions = 10 µM, 48 h; quantity = growth percent; value = 60.1%
SMILES = CSC(=NN=C(C)c1ccc(S(=O)(=O)N2CCC(C)CC2)cc1)N(C)C; cell line = HepG2; test = annexin V/PI staining; conditions = IC50, 72 h; quantity = apoptotic cells total; value = 22%
SMILES = CC(=O)N[C@H](C(=O)N[C@H](C(=O)N[C@@H](CCCNC(=N)N)C(=O)N1Cc2ccccc2C[C@H]1C(=O)N[C@@H](Cc1ccccc1)C(N)=O)C1CCCCC1)C(C)C; cell line = MBP-specific BC-3 T cells; test = Bio-Plex multiplex, measured: IL-9; conditions = 200 µg/mL, 24 h, added: MBP87-99 antigen; quantity = cytokine level; value = 27.3 ± 9.1 pg/mL
SMILES = COCCNCC(=O)N(CCCCN)CC(=O)N(CC(=O)N(CC(=O)N(CCCCN)CC(=O)N[C@@H](CCCCN)C(=O)N[C@H](CCCCN)C(=O)N[C@@H](CCSC)C(=O)NCCCC[C@H](NC(=O)[C@H](CCSC)NC(=O)[C@@H](CCCCN)NC(=O)[C@H](CCCCN)NC(=O)CN(CCCCN)C(=O)CN(C(=O)CN(Cc1ccc2c(c1)OCO2)C(=O)CN(CCCCN)C(=O)CNCCOC)[C@H](C)c1ccccc1)C(N)=O)[C@H](C)c1ccccc1)Cc1ccc2c(c1)OCO2; cell line = H358; test = gene expression decrease, qRT-PCR, measured: ALDH1A3; conditions = 6 days; quantity = onset concentration; value = 10 µM
SMILES = COC(=O)[C@H]1[C@H]2CCN(CC[C@]3(O)C(=O)Nc4cc(OC)ccc43)C[C@H]2C[C@@H](OC(=O)c2cc(OC)c(OC)c(OC)c2)[C@@H]1OC; cell line = NALM-6; test = trypan blue count; conditions = concentration not given, 72 h; quantity = growth inhibition; value = no effect
SMILES = O=Cc1c(O)ccc2ccccc12; cell line = HUVEC; test = RNA sequencing, measured: CYP26B1; conditions = 75 µM, 24 h; how to read = reference: DMSO; quantity = log2 fold change; value = -2.88
SMILES = CC(=O)OC[C@H]1O[C@@H](Sc2sc(C(=O)c3ccc(Br)cc3)c(N)c2-c2nc3ccccc3s2)[C@H](OC(C)=O)[C@@H](OC(C)=O)[C@H]1OC(C)=O; cell line = MDA-MB-231 breast cancer; test = SRB; conditions = 10 µM, 48 h; quantity = growth percent; value = 80.6%
SMILES = Cc1cccc(-c2cn([C@@H]3O[C@H](CO)[C@@H](O)[C@H]3O)c3ncnc(N)c23)c1; cell line = HEK; test = cytotoxicity; quantity = EC50; value = > 200 µM
SMILES = CCc1cccc(CC)c1NC(=O)c1nn(C)c2c1CCc1cnc(Nc3ccc(N4CCN(C)CC4)cc3OC)nc1-2; cell line = HCT-116 C604Y clone A; test = cell proliferation; how to read = reference: C604Y clone A over parental HCT-116; quantity = IC50 ratio; value = 18.8
SMILES = Cc1cc(C)nc(SCC(=O)Nc2ncc(Cc3cccc(OCc4cn(Cc5ccc(C#N)cc5)nn4)c3)s2)n1; cell line = PC-3M-luc; test = immunofluorescence; conditions = 20 µM, 5 h; quantity = α-tubulin acetylation; value = increased
SMILES = CO[C@H]1N(OC)c2ccccc2[C@@]12CN=C(Nc1cc(C(F)(F)F)cc(C(F)(F)F)c1)S2 (relative stereo); cell line = HCT-116; test = PI flow cytometry; conditions = 40 µM, 72 h; quantity = S phase cells; value = 5.71 ± 1.73%
SMILES = CC(Cc1ccc(Cl)cc1)=C(c1ccc(Cl)cc1)c1ccc(OCCN2CCOCC2)cc1; cell line = NCI-60 tumour cell lines; conditions = 10 µM, mean over cell lines; quantity = growth inhibition; value = 0.12%
SMILES = CC[C@H](C)[C@H](NC(=O)[C@@H]1CCCN1C(=O)[C@@H](N)C(C)C)C(=O)N[C@@H](C)C(N)=O; cell line = PC-12; test = Aβ42-induced neurotoxicity, inhibitor, MTT; conditions = concentration not given, 6 h, 37 °C, peptide to Aβ42 1:1, added: Aβ42 2 µM; how to read = reference: untreated cells; quantity = viability; value = 93%
SMILES = C=CC(=O)Nc1cc(Nc2nccc(-c3c(-c4cccc(OC)c4)n(C)c4ccccc34)n2)c(OC)cc1N(C)CCN(C)C; cell line = H1975; test = Western blot, measured: Bcl-2; conditions = concentration not given, 24 h; quantity = protein level; value = decreased
SMILES = CCOC(=O)C1=C(C)NC(=O)N[C@@H]1/C=C/c1ccc(OC)cc1; cell line = FR2 and A549; test = MTT; how to read = reference: IC50 FR2 over IC50 A549; quantity = selectivity ratio; value = > 10 fold
SMILES = Cc1cc(Cl)cc(-c2ccnc3cc(CN4C(=O)C5C(C4=O)C5(C)C)sc23)c1C[C@@H]1CNCCO1 (stereo partly drawn); cell line = CHP-212 USP7 V517F knock-in; test = SRB; how to read = reference: knock-in over wild type; quantity = IC50 ratio; value = 15 to 16 fold
SMILES = COc1cc(Cc2c[nH]c3ncc(C(F)(F)F)cc23)cc(OC)c1; cell line = 4T1; test = western blot; conditions = concentration not given, 24 h; quantity = Bcl-2 protein level; value = decreased
SMILES = COc1cc(CNC(=O)C[C@H](C)CCC=C(C)C)ccc1O; cell line = SF-268 CNS cancer cells; test = SRB; conditions = 10 µM, 48 h; quantity = growth percent; value = 77%
SMILES = COc1cc(N2CCN(C(=O)C3CCCN3)CC2)ccc1Nc1ncc(Cl)c(Nc2ccccc2P(C)(C)=O)n1 (stereo not drawn); cell line = Ba/F3 EML4-ALK; test = flow cytometry; conditions = 1 µM; quantity = onset of apoptosis; value = 3 h
SMILES = CCC(=C(c1ccc(Cl)cc1)c1ccc(OCCN2CCCCC2)cc1)c1ccc(OC)cc1; cell line = NCI-60 tumour cell lines; conditions = 10 µM, mean over cell lines; quantity = growth inhibition; value = 43.3%
SMILES = Cc1ccc(C(C)C)cc1.[Cl-].[Cl][Ru+].[Ru+].c1ccc(-c2cn(CCCCOc3ccccc3-c3nc4ccccc4s3)nn2)nc1; cell line = MCF7; test = PI flow cytometry, measured: G0/G1 phase; conditions = 8 µM, 24 h; quantity = cells in phase; value = 59.6%
SMILES = Cc1cc(/N=N/c2ccc(/N=N/c3ccc(O)c(C(=O)O)c3)cc2)c(N)cc1N; cell line = primary mouse articular chondrocytes; test = real-time PCR, measured: Col2a1; conditions = 25 µM, micromass culture; quantity = mRNA level; value = increased
SMILES = CC1=C2[O][Ru-]([Cl])[O+]=C2C=CN1CCCCCCCCCCCCN1C=CC2=[O+][Ru-]([Cl])[O]C2=C1C.Cc1ccc(C(C)C)cc1.Cc1ccc(C(C)C)cc1; cell line = KYSE70-oxo oxoplatin-resistant; how to read = reference: KYSE-70 parent; quantity = sensitivity relative to parent; value = > 10 fold
SMILES = COc1cc(CNC(=O)C[C@H](C)CCC=C(C)C)ccc1OCc1cn(-c2ccccc2[N+](=O)[O-])nn1; cell line = SF-295 CNS cancer cells; test = SRB; conditions = 10 µM, 48 h; quantity = growth percent; value = 60.5%
SMILES = Cc1cc(O)c2c(C(=O)[O-])[n+]3n(c2c1)CCCC3; cell line = HepG2, palmitic acid-induced insulin resistance; conditions = 12.5 µM, 24 h; quantity = glucose consumption; value = 9.01 ± 0.5 mM
SMILES = CC[C@H](C)[C@H](NC(=O)[C@@H](NC(=O)[C@@H](N)C(C)C)C(C)C)C(=O)NCC(N)=O; cell line = PC-12; test = Aβ42-induced neurotoxicity, inhibitor, MTT; conditions = concentration not given, 6 h, 37 °C, peptide to Aβ42 1:1, added: Aβ42 2 µM; how to read = reference: untreated cells; quantity = viability; value = 80.7%
SMILES = CC(C)=CCc1c(O)cc2c(c1O)C(=O)OC2; cell line = HepG2, palmitic acid-induced insulin resistance; conditions = 15 µM, 24 h; quantity = glucose consumption; value = 11 ± 0.86 mM
SMILES = COc1ccc(CNc2nc3c(c(=O)[nH]2)[n+](C)cn3C2OC(COP(=O)(O)OP(=O)([O-])OP(=O)(O)OCC3OC(n4cnc5c(=O)[nH]c(N)nc54)C(O)C3O)C(O)C2O)cc1 (stereo not drawn); cell line = HEK293 transfected with capped mRNA; test = luciferase expression; how to read = reference: m7GpppG-capped mRNA; quantity = relative protein expression; value = 2.18 and 2.2
SMILES = O=C(N1CCCC1)n1cc(-c2ccc(-c3ccccc3)cc2)nn1; cell line = mouse T-cells; test = N-terminal labeled proteins, N-terminal enrichment proteomics, measured: NDUFV2; conditions = 1 nM, 6 h; how to read = reference: DMSO; quantity = SILAC ratio; value = 1.12 ± 0.19

Excerpt of the above:
SMILES = Cc1cc(Cl)cc(-c2ccnc3cc(CN4C(=O)C5C(C4=O)C5(C)C)sc23)c1C[C@@H]1CNCCO1 (stereo partly drawn); cell line = CHP-212 USP7 V517F knock-in; test = SRB; how to read = reference: knock-in over wild type; quantity = IC50 ratio; value = 15 to 16 fold
SMILES = CCC(=C(c1ccc(Cl)cc1)c1ccc(OCCN2CCCCC2)cc1)c1ccc(OC)cc1; cell line = NCI-60 tumour cell lines; conditions = 10 µM, mean over cell lines; quantity = growth inhibition; value = 43.3%
SMILES = CCc1cccc(CC)c1NC(=O)c1nn(C)c2c1CCc1cnc(Nc3ccc(N4CCN(C)CC4)cc3OC)nc1-2; cell line = HCT-116 C604Y clone A; test = cell proliferation; how to read = reference: C604Y clone A over parental HCT-116; quantity = IC50 ratio; value = 18.8
